Measured values of several laboratories.
A part holds a random share of what one study measured.
Chain of UniProt Q9HCP0 (whole entry, looked up): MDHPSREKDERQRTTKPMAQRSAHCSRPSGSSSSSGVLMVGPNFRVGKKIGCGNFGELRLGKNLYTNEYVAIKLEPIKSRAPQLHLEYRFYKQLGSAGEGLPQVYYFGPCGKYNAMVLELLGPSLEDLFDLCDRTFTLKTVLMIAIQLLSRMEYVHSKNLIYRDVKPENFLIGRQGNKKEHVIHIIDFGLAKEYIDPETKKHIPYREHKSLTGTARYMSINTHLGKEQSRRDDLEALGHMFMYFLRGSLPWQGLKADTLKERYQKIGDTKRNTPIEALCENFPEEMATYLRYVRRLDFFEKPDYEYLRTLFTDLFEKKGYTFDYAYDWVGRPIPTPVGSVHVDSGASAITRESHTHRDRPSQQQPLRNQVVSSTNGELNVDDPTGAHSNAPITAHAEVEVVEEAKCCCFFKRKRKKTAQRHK
Chain of UniProt P07333 (whole entry, looked up): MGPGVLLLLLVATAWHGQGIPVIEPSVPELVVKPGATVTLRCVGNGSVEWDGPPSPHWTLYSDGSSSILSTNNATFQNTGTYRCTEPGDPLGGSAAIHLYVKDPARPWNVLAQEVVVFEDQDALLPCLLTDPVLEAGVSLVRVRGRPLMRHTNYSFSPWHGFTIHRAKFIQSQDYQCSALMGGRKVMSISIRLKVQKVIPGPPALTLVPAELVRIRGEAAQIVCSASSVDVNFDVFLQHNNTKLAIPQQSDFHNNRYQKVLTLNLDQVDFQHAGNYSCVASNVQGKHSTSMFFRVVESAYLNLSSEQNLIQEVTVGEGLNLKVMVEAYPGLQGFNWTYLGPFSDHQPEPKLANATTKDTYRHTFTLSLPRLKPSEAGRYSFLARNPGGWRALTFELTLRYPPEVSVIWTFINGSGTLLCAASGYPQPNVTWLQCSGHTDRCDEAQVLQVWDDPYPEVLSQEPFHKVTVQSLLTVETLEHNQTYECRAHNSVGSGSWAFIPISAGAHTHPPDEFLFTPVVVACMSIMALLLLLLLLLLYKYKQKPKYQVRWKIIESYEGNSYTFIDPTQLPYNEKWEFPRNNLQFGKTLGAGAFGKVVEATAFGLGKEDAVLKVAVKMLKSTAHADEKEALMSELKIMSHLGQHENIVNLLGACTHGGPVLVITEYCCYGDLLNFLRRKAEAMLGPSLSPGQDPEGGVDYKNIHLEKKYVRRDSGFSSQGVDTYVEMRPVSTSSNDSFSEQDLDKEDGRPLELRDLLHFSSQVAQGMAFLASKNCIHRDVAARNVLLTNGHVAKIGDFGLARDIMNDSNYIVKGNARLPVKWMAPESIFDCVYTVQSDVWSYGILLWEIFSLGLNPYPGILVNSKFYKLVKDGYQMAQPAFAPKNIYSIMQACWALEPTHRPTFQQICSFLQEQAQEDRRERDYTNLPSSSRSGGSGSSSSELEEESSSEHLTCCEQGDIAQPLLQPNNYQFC
Chain of UniProt P42336 (whole entry, unmodified, looked up): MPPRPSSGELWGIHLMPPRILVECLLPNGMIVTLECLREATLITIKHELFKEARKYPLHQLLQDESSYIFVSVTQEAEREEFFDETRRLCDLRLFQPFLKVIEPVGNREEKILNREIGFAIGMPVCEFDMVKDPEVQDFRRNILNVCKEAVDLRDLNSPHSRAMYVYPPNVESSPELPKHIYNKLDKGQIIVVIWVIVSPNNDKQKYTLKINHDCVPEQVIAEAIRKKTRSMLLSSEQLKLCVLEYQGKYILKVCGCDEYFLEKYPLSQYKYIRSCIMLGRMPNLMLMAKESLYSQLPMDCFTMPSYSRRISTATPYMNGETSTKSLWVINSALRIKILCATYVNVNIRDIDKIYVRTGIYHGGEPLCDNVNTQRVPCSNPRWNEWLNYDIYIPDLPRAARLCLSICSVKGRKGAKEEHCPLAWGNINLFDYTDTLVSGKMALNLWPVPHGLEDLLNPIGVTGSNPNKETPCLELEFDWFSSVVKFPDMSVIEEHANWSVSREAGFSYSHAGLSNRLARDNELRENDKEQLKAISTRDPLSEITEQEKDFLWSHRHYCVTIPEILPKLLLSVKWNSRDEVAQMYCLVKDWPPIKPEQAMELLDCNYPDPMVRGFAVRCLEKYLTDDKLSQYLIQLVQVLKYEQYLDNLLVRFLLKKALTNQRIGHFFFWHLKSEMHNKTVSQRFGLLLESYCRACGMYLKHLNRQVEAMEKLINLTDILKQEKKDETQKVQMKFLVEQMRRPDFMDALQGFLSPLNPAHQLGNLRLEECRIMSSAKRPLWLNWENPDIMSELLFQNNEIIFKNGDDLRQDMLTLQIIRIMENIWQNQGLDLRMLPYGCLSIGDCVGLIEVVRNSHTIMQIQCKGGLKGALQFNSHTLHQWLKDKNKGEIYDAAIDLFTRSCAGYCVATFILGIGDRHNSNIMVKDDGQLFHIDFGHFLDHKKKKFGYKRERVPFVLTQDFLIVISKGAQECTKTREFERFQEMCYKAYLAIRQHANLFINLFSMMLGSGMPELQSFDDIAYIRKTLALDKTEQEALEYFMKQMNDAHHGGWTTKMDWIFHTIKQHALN
Chain of UniProt Q02763 (whole entry, looked up): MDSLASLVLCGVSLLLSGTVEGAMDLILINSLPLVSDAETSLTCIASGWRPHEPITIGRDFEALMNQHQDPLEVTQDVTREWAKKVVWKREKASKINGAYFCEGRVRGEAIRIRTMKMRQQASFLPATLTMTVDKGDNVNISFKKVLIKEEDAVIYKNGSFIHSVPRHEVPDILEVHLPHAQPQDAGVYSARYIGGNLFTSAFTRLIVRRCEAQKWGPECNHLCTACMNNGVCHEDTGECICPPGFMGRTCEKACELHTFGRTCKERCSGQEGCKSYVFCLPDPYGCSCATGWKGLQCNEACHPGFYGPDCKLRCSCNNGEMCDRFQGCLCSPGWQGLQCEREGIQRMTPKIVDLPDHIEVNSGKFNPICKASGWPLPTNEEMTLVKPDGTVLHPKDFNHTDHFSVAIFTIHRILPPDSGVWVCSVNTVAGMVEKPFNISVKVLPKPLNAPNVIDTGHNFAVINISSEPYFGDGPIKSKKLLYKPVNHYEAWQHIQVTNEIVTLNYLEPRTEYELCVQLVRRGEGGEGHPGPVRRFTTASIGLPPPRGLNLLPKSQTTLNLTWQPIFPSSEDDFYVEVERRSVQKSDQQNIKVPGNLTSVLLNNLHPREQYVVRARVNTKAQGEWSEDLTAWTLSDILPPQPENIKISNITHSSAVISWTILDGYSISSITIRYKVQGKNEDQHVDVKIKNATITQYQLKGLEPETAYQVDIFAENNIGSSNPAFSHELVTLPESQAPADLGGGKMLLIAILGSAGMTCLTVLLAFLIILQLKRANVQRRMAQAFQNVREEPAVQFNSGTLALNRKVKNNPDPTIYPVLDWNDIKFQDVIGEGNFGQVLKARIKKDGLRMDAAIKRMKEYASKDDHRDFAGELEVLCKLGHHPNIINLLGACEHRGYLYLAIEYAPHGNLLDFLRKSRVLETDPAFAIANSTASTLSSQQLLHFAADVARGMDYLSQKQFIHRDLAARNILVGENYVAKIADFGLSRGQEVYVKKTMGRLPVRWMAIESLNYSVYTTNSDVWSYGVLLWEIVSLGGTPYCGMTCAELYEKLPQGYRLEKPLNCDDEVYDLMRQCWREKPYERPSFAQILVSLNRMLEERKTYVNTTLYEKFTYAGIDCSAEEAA
Chain of UniProt Q9Y6E0 (whole entry, looked up): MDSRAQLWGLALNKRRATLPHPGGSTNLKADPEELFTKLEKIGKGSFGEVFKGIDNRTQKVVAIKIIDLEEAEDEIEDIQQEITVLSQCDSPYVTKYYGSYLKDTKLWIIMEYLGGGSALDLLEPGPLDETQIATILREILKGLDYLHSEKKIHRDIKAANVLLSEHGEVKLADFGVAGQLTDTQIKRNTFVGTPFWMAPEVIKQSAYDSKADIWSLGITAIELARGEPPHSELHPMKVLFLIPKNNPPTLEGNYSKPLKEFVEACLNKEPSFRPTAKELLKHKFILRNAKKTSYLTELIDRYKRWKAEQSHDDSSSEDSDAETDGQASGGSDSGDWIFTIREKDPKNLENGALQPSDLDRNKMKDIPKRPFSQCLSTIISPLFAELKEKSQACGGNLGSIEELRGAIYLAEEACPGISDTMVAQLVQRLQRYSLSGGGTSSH

Set 1 — read-out: enzyme activity; mode: inhibitor; concentration: 0.5 µM; reference: control
Structure (SMILES): O=S(=O)(NCCNC/C=C/c1ccc(Br)cc1)c1cccc2cnccc12
target	remaining activity
Serine/threonine-protein kinase 24 (STK24, Homo sapiens, UniProt Q9Y6E0)	72%
NUAK family SNF1-like kinase 2 (NUAK2, Homo sapiens, UniProt Q9H093)	78.1%
Ephrin type-A receptor 1 (EPHA1, Homo sapiens, UniProt P21709)	83.7%
Myosin light chain kinase 2, skeletal/cardiac muscle (MYLK2, Homo sapiens, UniProt Q9H1R3)	96.5%
Ephrin type-A receptor 8 (EPHA8, Homo sapiens, UniProt P29322)	118%
Protein kinase C beta type, isoform beta-II (PRKCB, Homo sapiens, UniProt P05771)	90.2%
Calcium/calmodulin-dependent protein kinase type II subunit gamma (CAMK2G, Homo sapiens, UniProt Q13555)	98.7%
MAP kinase-interacting serine/threonine-protein kinase 1 (MKNK1, Homo sapiens, UniProt Q9BUB5)	93.4%
Mitogen-activated protein kinase kinase kinase 11 (MAP3K11, Homo sapiens, UniProt Q16584)	95.6%
Serine/threonine-protein kinase D2 (PRKD2, Homo sapiens, UniProt Q9BZL6)	75.9%
Serine/threonine-protein kinase Nek7 (NEK7, Homo sapiens, UniProt Q8TDX7)	96.9%
MAP kinase-activated protein kinase 5 (MAPKAPK5, Homo sapiens, UniProt Q8IW41)	90.2%
Receptor tyrosine-protein kinase erbB-4 (ERBB4, Homo sapiens, UniProt Q15303)	94.2%
Non-receptor tyrosine-protein kinase TYK2 (TYK2, Homo sapiens, UniProt P29597)	103%
Interleukin-1 receptor-associated kinase 1 (IRAK1, Homo sapiens, UniProt P51617)	95.7%
Serine/threonine-protein kinase 26 (STK26, Homo sapiens, UniProt Q9P289)	94.8%
Lymphokine-activated killer T-cell-originated protein kinase (PBK, Homo sapiens, UniProt Q96KB5)	107%
Death-associated protein kinase 3 (DAPK3, Homo sapiens, UniProt O43293)	97.4%
Casein kinase I isoform gamma-1 (CSNK1G1, Homo sapiens, UniProt Q9HCP0)	97.2%

Set 2 — sample: hydrocarbon/water; pH: 7.4
Compound	logD
CC[C@@H]1C(=O)N(C)[C@@H](CC(C)C)C(=O)N[C@@H](CC(C)C)C(=O)N2CCC[C@@H]2C(=O)N(C)[C@@H](Cc2ccc(O)cc2)C(=O)N[C@@H](CC(C)C)C(=O)N1C	1.38
CC[C@@H]1C(=O)N(C)[C@@H](CC2CCCCC2)C(=O)N[C@@H](CC2CCCCC2)C(=O)N2CCC[C@@H]2C(=O)N(C)[C@@H](Cc2ccc(O)cc2)C(=O)N[C@@H](CC(C)C)C(=O)N1C	3.25
CCCN1CC(=O)N[C@@H](CC2CCCCC2)C(=O)N2CCC[C@@H]2C(=O)N(C)[C@@H](C)C(=O)N[C@@H](CC2CCCCC2)C(=O)N(C)[C@@H](C)C(=O)N[C@@H](CC(C)C)C(=O)N(C)Cc2cn(nn2)CC(=O)N[C@@H](CC(C)C)C1=O	1.79
CC(C)CC1NC(=O)CN(CC2CCCCC2)C(=O)C2CCCN2C(=O)C(CC(C)C)NC(=O)C(C)N(C)C(=O)C(CC(C)C)NC(=O)CN(CCCOC(C)C)C(=O)C2CCCN2C(=O)C(C)NC(=O)C(C)N(C)C1=O (stereo not shown)	≥ 3.4
CC(C)C[C@@H]1NC(=O)[C@H](C)N(C)C(=O)[C@H]2CCCN2C(=O)[C@H](CC(C)C)NC(=O)[C@H](C)N(C)C(=O)[C@@H](C)N(C)C1=O	-0.167
CCC[C@@H]1NC(=O)[C@H](C)N(C)C(=O)[C@H](CC(C)C)NC(=O)Cn2cc(nn2)CN(C)C(=O)[C@H](CC(C)C)NC(=O)[C@H](C)N(C)C(=O)[C@H](CC)NC(=O)[C@H](CCC)N(C)C(=O)[C@H]2CCCN2C1=O	-0.834
CCCN1CC(=O)N[C@@H](CC(C)C)C(=O)N2CCC[C@@H]2C(=O)N(C)[C@@H](C)C(=O)N[C@@H](CC(C)C)C(=O)N(C)[C@@H](C)C(=O)N[C@@H](CC(C)C)C(=O)N(C)Cc2cn(nn2)CC(=O)N[C@@H](CC(C)C)C1=O	-0.403
CCC[C@@H]1NC(=O)[C@H](C)N(C)C(=O)[C@H](CC(C)C)NC(=O)Cn2cc(nn2)CN(C)C(=O)[C@H](CC(C)C)NC(=O)[C@H](C)N(C)C(=O)[C@H](CC2CCCCC2)NC(=O)CN(CC)C(=O)[C@H]2CCCN2C1=O	0.244
CCC[C@@H]1NC(=O)[C@H](C)N(C)C(=O)[C@H](CC(C)C)NC(=O)Cn2cc(nn2)CN(C)C(=O)[C@H](CC(C)C)NC(=O)[C@H](C)N(C)C(=O)[C@H](CC)NC(=O)CN(CC)C(=O)[C@H]2CCCN2C1=O	-2.22
CC[C@H]1NC(=O)[C@H](CC(C)C)NC(=O)[C@H](Cc2ccc(O)cc2)NC(=O)[C@H]2CCCN2C(=O)[C@H](CC2CCCCC2)NC(=O)[C@H](CC2CCCCC2)NC1=O	0.395
CCCCCN1CC(=O)NC(CC(C)C)C(=O)N(C)C(C)C(=O)NC(C)C(=O)N2CCCC2C(=O)N(Cc2ccc3c(c2)OCO3)CC(=O)NC(CC(C)C)C(=O)N(C)C(C)C(=O)NC(CC(C)C)C(=O)N2CCCC2C1=O (stereo not shown)	2.46

Set 3 — read-out: cell-free assay; technique: competition with immobilised ligand; concentration: 1 µM
Structure (SMILES): Cc1nccc(COC(=O)N2C[C@@H]3[C@@H](CNC(=O)c4ccc5[nH]nnc5c4)[C@@H]3C2)n1
target	remaining binding [%]
cAMP-dependent protein kinase catalytic subunit beta (PRKACB, Homo sapiens, UniProt P22694)	98
Serine/threonine-protein kinase PLK3 (PLK3, Homo sapiens, UniProt Q9H4B4)	73
Vascular endothelial growth factor receptor 3 (FLT4, Homo sapiens, UniProt P35916)	100
Macrophage colony-stimulating factor 1 receptor (CSF1R, Homo sapiens, UniProt P07333)	88
Serine/threonine-protein kinase Sgk1 (SGK1, Homo sapiens, UniProt O00141)	100
Activin receptor type-2B (ACVR2B, Homo sapiens, UniProt Q13705)	91
Serine/threonine-protein kinase LATS1 (LATS1, Homo sapiens, UniProt O95835)	89
Cyclin-dependent kinase 4 (CDK4, Homo sapiens, UniProt P11802)	80
Tyrosine-protein kinase ABL1, non-phosphorylated (ABL1, Homo sapiens, UniProt P00519, T315I)	90
Mitogen-activated protein kinase 6 (MAPK6, Homo sapiens, UniProt Q16659)	93
Casein kinase I isoform gamma-2 (CSNK1G2, Homo sapiens, UniProt P78368)	96
Casein kinase I isoform gamma-1 (CSNK1G1, Homo sapiens, UniProt Q9HCP0)	100
cAMP-dependent protein kinase catalytic subunit alpha (PRKACA, Homo sapiens, UniProt P17612)	88
Tyrosine-protein kinase SYK (SYK, Homo sapiens, UniProt P43405)	100
Mitogen-activated protein kinase 3 (MAPK3, Homo sapiens, UniProt P27361)	92
LIM domain kinase 1 (LIMK1, Homo sapiens, UniProt P53667)	100
Protein-tyrosine kinase 2-beta (PTK2B, Homo sapiens, UniProt Q14289)	100
Angiopoietin-1 receptor (TEK, Homo sapiens, UniProt Q02763)	90
Serine/threonine-protein kinase B-raf (BRAF, Homo sapiens, UniProt P15056)	84
Membrane-associated tyrosine- and threonine-specific cdc2-inhibitory kinase (PKMYT1, Homo sapiens, UniProt Q99640)	100
Phosphatidylinositol 4,5-bisphosphate 3-kinase catalytic subunit alpha isoform (PIK3CA, Homo sapiens, UniProt P42336, E545K)	86
Receptor-type tyrosine-protein kinase FLT3 (FLT3, Homo sapiens, UniProt P36888, R834Q)	85
Tyrosine-protein kinase receptor TYRO3 (TYRO3, Homo sapiens, UniProt Q06418)	100

Set 4 — Compound: C=CCc1ccc(O)c(-c2ccc(O)c(CC=C)c2)c1; read-out: chloride current
ANO1 del476-501/F628A: Anoctamin-1 (ANO1, Homo sapiens, UniProt Q5XXA6, del476-501/F628A)
Chain of UniProt Q5XXA6 (whole entry, unmodified, looked up): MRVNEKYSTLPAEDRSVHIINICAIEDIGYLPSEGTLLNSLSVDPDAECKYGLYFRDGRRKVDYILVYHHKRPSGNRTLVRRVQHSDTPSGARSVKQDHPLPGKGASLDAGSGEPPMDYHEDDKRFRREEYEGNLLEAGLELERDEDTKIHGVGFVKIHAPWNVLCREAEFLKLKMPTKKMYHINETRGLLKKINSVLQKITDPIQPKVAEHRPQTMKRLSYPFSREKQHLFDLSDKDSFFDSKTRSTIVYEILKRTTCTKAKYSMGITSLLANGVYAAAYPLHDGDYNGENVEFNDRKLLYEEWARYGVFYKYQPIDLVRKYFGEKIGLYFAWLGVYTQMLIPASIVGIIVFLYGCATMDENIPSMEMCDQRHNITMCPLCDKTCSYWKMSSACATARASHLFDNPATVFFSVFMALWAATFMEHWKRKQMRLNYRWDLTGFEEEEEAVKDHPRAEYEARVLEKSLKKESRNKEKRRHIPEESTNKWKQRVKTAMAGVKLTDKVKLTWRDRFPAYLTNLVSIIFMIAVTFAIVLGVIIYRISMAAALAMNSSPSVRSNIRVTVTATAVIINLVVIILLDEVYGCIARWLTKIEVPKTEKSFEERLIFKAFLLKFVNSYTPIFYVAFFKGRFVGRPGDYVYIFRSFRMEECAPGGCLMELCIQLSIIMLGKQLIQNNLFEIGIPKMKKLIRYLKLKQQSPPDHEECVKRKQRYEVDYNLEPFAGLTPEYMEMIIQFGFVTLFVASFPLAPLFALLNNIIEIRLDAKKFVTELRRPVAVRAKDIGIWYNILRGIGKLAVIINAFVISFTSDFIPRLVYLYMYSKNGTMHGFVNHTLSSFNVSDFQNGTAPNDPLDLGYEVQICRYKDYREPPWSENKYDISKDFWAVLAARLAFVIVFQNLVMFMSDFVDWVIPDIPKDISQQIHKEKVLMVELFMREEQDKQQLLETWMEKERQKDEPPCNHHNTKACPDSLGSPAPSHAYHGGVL
ANO1 del476-501: Anoctamin-1 (ANO1, Homo sapiens, UniProt Q5XXA6, del476-501)
ANO1 del476-501/E659A: Anoctamin-1 (ANO1, Homo sapiens, UniProt Q5XXA6, del476-501/E659A)
target	assay	setting	how to read	normalized current
ANO1 del476-501/F628A	whole-cell voltage clamp	10 µM, I-V at 0 mV, with: 4 µM Ca2+	–	-0.0042
ANO1 del476-501/F628A	whole-cell voltage clamp	1 µM, I-V at -100 mV, with: 4 µM Ca2+	–	-0.815
ANO1 del476-501	whole-cell voltage clamp	1 µM, wild type, I-V at -20 mV, with: 4 µM Ca2+	–	-0.183
ANO1 del476-501/E659A	inside-out patch clamp	10 µM, membrane voltage 40 mV	–	0.341
ANO1 del476-501/F628A	whole-cell voltage clamp	10 µM, concentration-response at 100 mV, with: 4 µM Ca2+	–	0.734
ANO1 del476-501/F628A	whole-cell voltage clamp	1 µM, I-V at 100 mV, with: 4 µM Ca2+	–	0.974
ANO1 del476-501/E659A	inhibitor, inside-out patch clamp	10 µM, E633A mutant at -80 mV	–	-0.843
Anoctamin-1 (ANO1, Homo sapiens, UniProt Q5XXA6, del476-501/K629A)	inside-out patch clamp	10 µM, membrane voltage 40 mV	–	0.215
Anoctamin-1 (ANO1, Homo sapiens, UniProt Q5XXA6, del476-501/E649A/R541A)	inside-out patch clamp	10 µM, membrane voltage 100 mV	–	0.706
ANO1 del476-501	whole-cell voltage clamp	10 µM, wild type, I-V at 60 mV, with: 4 µM Ca2+	–	0.173
ANO1 del476-501	whole-cell voltage clamp	10 µM, wild type, I-V at -100 mV, with: 4 µM Ca2+	–	-0.258
TMEM16A (human) K603A/E623A	inside-out patch clamp	10 µM, membrane voltage -20 mV	–	-0.0865
ANO1 del476-501	whole-cell voltage clamp	30 µM, wild type, concentration-response at -80 mV, with: 4 µM Ca2+	–	-0.0502
ANO1 del476-501	whole-cell voltage clamp	30 µM, wild type, I-V at 20 mV, with: 4 µM Ca2+	–	0.0138
ANO1 del476-501/E659A	inside-out patch clamp	10 µM, membrane voltage -60 mV	–	-0.621
ANO1 del476-501/F628A	whole-cell voltage clamp	3 µM, I-V at 80 mV, with: 4 µM Ca2+	–	0.681
Anoctamin-1 (ANO1, Homo sapiens, UniProt Q5XXA6, del476-501/F807A)	inhibitor, whole-cell voltage clamp	10 µM	reference: untreated	0.717

For quick reference, copied from above (set 1):
target	remaining activity
Ephrin type-A receptor 8 (EPHA8, Homo sapiens, UniProt P29322)	118%
Lymphokine-activated killer T-cell-originated protein kinase (PBK, Homo sapiens, UniProt Q96KB5)	107%
Receptor tyrosine-protein kinase erbB-4 (ERBB4, Homo sapiens, UniProt Q15303)	94.2%
Serine/threonine-protein kinase D2 (PRKD2, Homo sapiens, UniProt Q9BZL6)	75.9%
Interleukin-1 receptor-associated kinase 1 (IRAK1, Homo sapiens, UniProt P51617)	95.7%
Death-associated protein kinase 3 (DAPK3, Homo sapiens, UniProt O43293)	97.4%
Serine/threonine-protein kinase 24 (STK24, Homo sapiens, UniProt Q9Y6E0)	72%
Casein kinase I isoform gamma-1 (CSNK1G1, Homo sapiens, UniProt Q9HCP0)	97.2%
Serine/threonine-protein kinase 26 (STK26, Homo sapiens, UniProt Q9P289)	94.8%
MAP kinase-activated protein kinase 5 (MAPKAPK5, Homo sapiens, UniProt Q8IW41)	90.2%
NUAK family SNF1-like kinase 2 (NUAK2, Homo sapiens, UniProt Q9H093)	78.1%
